# Measurements pooled from the literature.
# Each numbered part is a random draw from the data of one study; scales do not carry over between parts. Changes are numbered by the printed parent chain.

# Block 1
# Target: ABI1, truncated, D143A, DHFR fusion (Arabidopsis thaliana)
# Method: DHFR PCA, deep sequencing
# Medium: yeast
# Setting: methotrexate growth selection, single substitutions
# With: (+)-ABA 17 µM
# Baseline: wild-type fitted maximum
# Reading: higher = stronger binding
# Starting sequence: PYL1, truncated, DHFR fusion (Arabidopsis thaliana); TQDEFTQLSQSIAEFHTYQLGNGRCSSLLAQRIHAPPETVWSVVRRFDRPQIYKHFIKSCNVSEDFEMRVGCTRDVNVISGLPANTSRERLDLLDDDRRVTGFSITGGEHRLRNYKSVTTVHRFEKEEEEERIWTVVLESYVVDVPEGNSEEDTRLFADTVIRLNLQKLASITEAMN
Change,relative binding score [%]
S63G,88.2
G102Y,0.354
R69T,84.9
T1N,85.1
Q2T,77
E89P,-19.7
I79K,69.6
E125N,83
V43L,75.9
L166N,2.96
E89R,-0.0968
N85R,89.6
R98C,40
I57Q,15.2
L169T,-13.2
L164P,1.41

# Block 2
# Target: Phosphate system positive regulatory protein PHO4, full length, GST-tagged (PHO4, Saccharomyces cerevisiae, UniProt P07270, residues 1-312)
# Method: competition protein-binding microarray
# Form: double-stranded DNA, one strand shown
# Medium: in vitro
# Concentration: 2 µM
# Setting: whole 60-bp probe, lowest competitor level
# With: Cbf1 competitor, 0.05 µM
# Reading: higher = stronger binding
# All sequences stand within: … GTCTTGATTCGCTTGACGCTGCTG
# Construct (chain): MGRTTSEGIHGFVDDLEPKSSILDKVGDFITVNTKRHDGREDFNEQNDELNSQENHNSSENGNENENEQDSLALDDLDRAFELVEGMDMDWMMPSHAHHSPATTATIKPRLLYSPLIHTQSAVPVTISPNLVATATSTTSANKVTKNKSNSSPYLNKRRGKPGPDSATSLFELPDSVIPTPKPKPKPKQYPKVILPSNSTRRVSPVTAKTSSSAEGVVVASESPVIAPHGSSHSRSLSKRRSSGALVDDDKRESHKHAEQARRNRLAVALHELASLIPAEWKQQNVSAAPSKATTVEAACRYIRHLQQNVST
Strand,fluorescence intensity [a.u.]
CATACCCAACCTTGTCGTGTGGGTGAAGATATTTGT,5580
GTCTTGTCTCATTGGCCGGTGGGTGTCCCCACTTCA,4310
GGAGGTAAGGACAAACTCGTGGAAGTGGCGATTAAT,8170
GAAACCTGAAACTGCCACGTGAAGACACCAGGGCTG,15100
CTAACGAAGGTTTGGATAGTGGGTGACAAGCCAAGT,3490
TTCTTAATTTTTTTGCACGTTTTTCAGCTTCTGGTT,13700
GTATGCACTTGAAACAACGTGTAGACCATCAATTGG,11600
ATTACCCTTGTTTTTCAATTGAAAACCCGGAACGAT,3440
CGTCCTAGTGATTGCCCGGTGGGTGCCATGAGGAAG,6770
AGCAGTGCTTTTACCCCCGTGCTTTTCGTTACAATA,11000
CCACTAATTAGCTGTCATGTGCCTGCGAACGCCCAA,8520

# Block 3
# Target: Ras GTPase-activating protein-binding protein 1, RRM domain (G3BP1, Homo sapiens, UniProt Q13283)
# UniProt Q13283, sequence (whole entry, looked up): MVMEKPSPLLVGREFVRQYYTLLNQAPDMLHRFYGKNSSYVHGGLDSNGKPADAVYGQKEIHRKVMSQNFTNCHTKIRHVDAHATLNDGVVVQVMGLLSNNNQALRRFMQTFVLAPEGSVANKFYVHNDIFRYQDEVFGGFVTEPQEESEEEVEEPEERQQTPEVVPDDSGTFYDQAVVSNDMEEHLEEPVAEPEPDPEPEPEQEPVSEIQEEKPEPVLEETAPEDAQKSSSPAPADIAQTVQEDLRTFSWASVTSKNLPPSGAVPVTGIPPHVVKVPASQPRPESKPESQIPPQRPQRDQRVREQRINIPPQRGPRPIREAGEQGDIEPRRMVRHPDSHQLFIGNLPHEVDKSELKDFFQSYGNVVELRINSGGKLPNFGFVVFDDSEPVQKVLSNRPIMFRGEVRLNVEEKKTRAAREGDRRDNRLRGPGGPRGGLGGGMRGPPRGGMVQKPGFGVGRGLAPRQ
# Method: RNA Bind-n-Seq
# Form: RNA
# Medium: in vitro
# Concentration: 1 µM
# Setting: whole 134-nt RNA, ends assumed
# With: 150 mM KCl
# Baseline: input library
# Reading: higher = stronger binding
# All sequences stand within: GGGAGUUCUACAGUCCGACGAUC … UGGAAUUCUCGGGUGUCAAGG
Strand,log2 enrichment
UGGGAGGUGGAUUUUGUUUAUUUUUUUAGCUCAUUUCCAGGGGUGGGAUUUUUUUUUUAAUAUGUGUCAUGAAUAAAGUUGUUUUUGAAA,1.67
CACAGACAACACGCACCCACACAGACACAGAGGGAAGGGGUUGGGAUGGGGACAGGGUGCACAGCAGGGCGGGGUAGGACCCCAGCCGCU,-0.24
CCUGUGCUACACAUCGUAUGUACCGAAUCGGCCCCCCCGGGGCCCCCCCGGCCCCCCCGGAAAGUAUUAUGUUACGCCGUUCGGAUCUGC,-0.667
UGGCCCUGGUGGCAUGCGGGGAGGAAGAGGUGGCCCCAUGGAUCGUGGUGGUCCCGGUGGAAUGUUCAGAGGUGGCCGUGGUGGAGACAG,1.03
CCAGGAAGUAAAAACAAAUGGAAAUGCUUCGGAUAGUGGCAGGGGUGGGGGUUGCUAAGGAAAGGGUGGGAUGGGAGUGGGUAAAGAGUU,1.1
GCAGGAAGUAAAAACAAAUGGUAAUGCUUCGGAUAGUGGCAGGGGUGGGGGUUGCUAAGGAAAGGGUGGGAUGGGAGUGGGUAAAGAGUU,1.62
UCCUCAAGUCCUGUGCUACACAUCGUAUGUACCGAAUCGGUGGGUGGUGGGAAAGUAUUAUGUUACGCCGUUCGGAUCUGCACUUCCAGC,-0.0503
UCCUGUGCUACACAUCGUAUGUACCGAAUCGGGUUUUUUUGGGUUUGGGUUUUUUUGGGAAAGUAUUAUGUUACGCCGUUCGGAUCUGCA,-0.192
UGUCAGGAUUAUGAAGAAGCUGUGCUCUUGCUGUUAGAAGGAGCUGCCUGGGAAGAAGCUUUGAGGCUGGUAAGAAUCUUGUAAAUCCUC,-0.224
CCUGUGCUACACAUCGUAUGUACCGAAUCGGCCCCCCCGGGGCCCCCCCGGGCCCCCCCGGAAAGUAUUAUGUUACGCCGUUCGGAUCUG,-0.616
UGGGAGGUGGAUUUUGUUUAUUUUUUUAGCUCAUUUCCAGGGGUGGGAAUUUUUUUUUCAUAUGUGUCAUGAAUAAAGUUGUUUUUGAAA,2.73
UUUGCUGUUGUUAACCAUCAAGGGACCUUGGAGAGUGGCCACUACACCAGCUUUAUCCGGCAGCACAAAGACCAGUGGUUCAAGUGUGAC,-0.0635
GUCCUGUGCUACACAUCGUAUGUACCGAAUCGGGGUUUUUGGGGUUUUUGGUUUUUGGAAAGUAUUAUGUUACGCCGUUCGGAUCUGCAC,-0.247
ACCAUGCAGGUGGGCAUCUUUGGGAAGUGGGGAAAGGGGGGGAUAGGGAGGGGGGUAACACUUUGGGAACAGGUGGUCCCAGGUCGUUUC,-0.436

# Block 4
# Target: RNA binding protein fox-1 homolog 2, RRM domain, GST-SBP tag (RBFOX2, Homo sapiens, UniProt O43251-10, residues 100-194)
# Method: RNA Bind-n-Seq
# Form: RNA
# Medium: in vitro
# Concentration: 365 nM
# Setting: natural RNA segment, single round, ends assumed
# Baseline: no-protein control
# Reading: higher = stronger binding
# All sequences stand within: GGGAGUUCUACAGUCCGACGAUC … UGGAAUUCUCGGGUGCCAA
# Residues (chain): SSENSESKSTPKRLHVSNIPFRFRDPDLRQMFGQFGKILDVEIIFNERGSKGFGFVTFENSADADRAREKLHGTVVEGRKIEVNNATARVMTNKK
Strand,RBNS enrichment (R)
GGCAGAGGUAUGCUCCUGCUGUAAUCAGGCAAAUGAGUUCAACUGGAUUUCUUUUGACAAUACUGUUGGUACCUAUUACUUGGGGGAGGACAUGUUGCAGAAGACCAGAU,0.264
AAAGAUUUUUAACCCAUUCAUUCUUAGUGUGAAUUUUCUAAAAUAGAAGUAUAAAAAAAAAGUCUCUAUAAUCUGAUAGGAAACCGUCUUUUCCCAAGUGAAUUCCCUUU,0.442
AGCUGUGGAGUUCAGUCCAGGCAUGAAGACUAAAUCUGCUUUACCAAGUAAGGUGUAAGGUUGCAUGUUUCAGUCCUCUACCAUCCUGCACUGUGAGCAGCACUAUACCU,10.2
UCCACCAGAGCUCCUGCCUGCCAGGACUGGACCAGAGCAGCCAGGCUGGGGCCCCUCUGUCUCAACCCGCAGACCCUUGACUGAAUGAGAGAGGCCAGAGGAUGCUCCCC,0.413
GGCUGGUGGCAAGUGCACGGGGCACAGCGGAGUCUGUCCUGUGACGCGCAAGUCUGAGGGUCUGGGCGGCGGGCGGCUGGGUCUGUGCAUUUCUGGUUGCACCGCGGCGC,0.674
AAUUCUUCUCAGAAACUGGAAGACAUUCCUCUGUGUUUGCCCCUUCCUGACCCAAGAGACACCCUAUACAUGAGGGCCCAGCUCUUUACCUCUGGGGACAGCUGGCAUGC,0.512
AUCUGGAAUUGUUUCUAAAUAUAAGUCAUUUGUAGCAAGACUUUGGAAGCAUUCUUUCUUAAACAUAUUCCUUUAUGUUCAGUAGUUAAGAGAACCAGGGCCCACGGCGG,0.307
GGUGAGGGUGGCUUUCUUCCAGCCCCAAAUGAGACGAGUCUGUGUCAUCAUUGAAACUGCUUUUCGUAAUUGCGGGUAGGUUCCUGUAGGUGAGACAUAUUCUCCAUAAA,0.323
AGCAUAGGUCUCUCUCUGCACAGUGUUGGUUCCUCCAGCCUAACCUUUGGCUUUGGGAAGGAAGAGAUGACCGUAAUCUUGCAACAAGAGUGCCCAACCAGGGACCACUG,0.372
UUUAAAAAAAAAAAGAAAAAAAGCUGUAACCUUAUCAUUUCUGAGUAGACCAUUGAGCGAUGAAUGCACACCUGUAGUAGCCCAGGACCAGCUGUGGUGGCUAAAGGGAA,0.776
CUGUGGGCUGACUGCCCUCCGAAGAGAGUUCUGGAUGUCUGGCUCAAAGCAGCAGGACUGUGGGAAAGAGCCUAACAUCUCCAUGGGGAGGCCUCACCCCAGGGACAGGG,0.681
UUCAGGCAUUUCUAUUUCACAAUCGAAUUGAACACAUUGGCCAAAUAAAGUUGAAAUUUUACCACCUUCCUUGCCUCGGGUUUAUGAUCUCACCAAGCCCGGAGAGCUGG,0.605
